{"data": "Published values collected from several papers", "Nuclear receptor subfamily 2 group C member 2 ligand-binding domain": "Nuclear receptor subfamily 2 group C member 2, ligand-binding domain (Homo sapiens, UniProt P49116)", "note": "Each line is one published result; not all experiments were run side by side. Numbers after ± are the reported error.", "chain of UniProt P49116 (whole entry, looked up)": "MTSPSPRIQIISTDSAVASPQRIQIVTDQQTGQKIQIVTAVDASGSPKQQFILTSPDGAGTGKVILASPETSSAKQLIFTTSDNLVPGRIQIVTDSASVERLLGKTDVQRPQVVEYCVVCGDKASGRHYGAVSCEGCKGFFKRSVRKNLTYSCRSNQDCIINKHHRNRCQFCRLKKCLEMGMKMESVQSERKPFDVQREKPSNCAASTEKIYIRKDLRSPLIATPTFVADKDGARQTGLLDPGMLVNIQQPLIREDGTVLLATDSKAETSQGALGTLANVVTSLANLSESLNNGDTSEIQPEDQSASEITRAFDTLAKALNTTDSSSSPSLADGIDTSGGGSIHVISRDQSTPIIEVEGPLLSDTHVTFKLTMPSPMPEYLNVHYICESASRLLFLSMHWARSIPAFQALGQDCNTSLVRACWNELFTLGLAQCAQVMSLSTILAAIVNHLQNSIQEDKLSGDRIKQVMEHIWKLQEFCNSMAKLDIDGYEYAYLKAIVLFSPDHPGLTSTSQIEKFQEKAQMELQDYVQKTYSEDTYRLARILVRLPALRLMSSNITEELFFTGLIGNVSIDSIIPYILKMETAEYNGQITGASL"}
{"SMILES": "C[C@@H](N)C1CCN(S(=O)(=O)c2cccc3cnccc23)CC1", "test system": "healthy volunteers, fasted, plasma", "setting": "oral, 25 mg", "measurement": "t1/2", "value": "0.52 h"}
{"SMILES": "CC[C@@H]1C(=O)OC[C@@H]1Cc1cncn1C", "tested on": "Nuclear receptor subfamily 2 group C member 2 ligand-binding domain", "assay": "SPR imaging", "measurement": "Kd", "value": "0.801 nM"}
{"SMILES": "COc1ccc2[nH]c([S+]([O-])Cc3ncc(C)c(OC)c3C)nc2c1 (centres unmarked)", "test system": "healthy Chinese volunteers, CYP2C19 rapid metabolizers", "setting": "oral, 20 mg, fed", "measurement": "t1/2", "value": "0.79 ± 0.3 h"}
{"SMILES": "C[C@@H](NC(=O)N1C(=O)[C@H](Cc2ccnc(N)c2)[C@H]1C(=O)O)C1CCCCC1", "assay": "UPLC-MS/MS", "test system": "healthy adult Chinese volunteers, plasma", "setting": "continuous intravenous infusion, 0.6 mg/kg/h, day 6 of 5-day infusion, mean", "measurement": "t1/2", "value": "1.15 h"}
{"SMILES": "CN(C)CCC=C1c2ccccc2CCc2ccccc21", "tested on": "Nuclear receptor subfamily 2 group C member 2 ligand-binding domain", "assay": "SPR imaging", "measurement": "Kd", "value": "0.024 nM"}
{"SMILES": "CCc1nc(C(N)=O)c(Nc2ccc(N3CCC(N4CCN(C)CC4)CC3)c(OC)c2)nc1NC1CCOCC1", "assay": "LC-MS/MS", "test system": "relapsed/refractory AML patients, plasma", "setting": "oral, 40 mg once daily, cycle 1 day 15, median, from accumulation ratio", "measurement": "t1/2", "value": "152 h"}
{"SMILES": "COc1cc2c(NC3CCN(C)CC3)nc(N3CCCN(C)CC3)nc2cc1OCCOCCN(C)C", "tested on": "OCI-Ly1", "setting": "1 µM, 120 h", "measurement": "viability", "value": "155%"}
{"SMILES": "CS(=O)(=O)c1cnc(NS(=O)(=O)c2ccc(N)cc2)nc1.Cl", "test system": "human liver microsomes", "setting": "2 µM, pH 7.4, approximate", "measurement": "t1/2", "value": "~25.3 h"}
{"SMILES": "C[C@H]1CN(C(=O)CC#N)[C@]12CCN(c1ncnc3[nH]ccc13)C2", "test system": "healthy Japanese males", "setting": "oral, 100 mg single dose, mean", "measurement": "t1/2", "value": "4.5 h"}
{"SMILES": "C[C@]12O[C@H](C[C@]1(O)CO)n1c3ccccc3c3c4c(c5c6ccccc6n2c5c31)CNC4=O", "tested on": "OCI-Ly1", "setting": "1 µM, 120 h", "measurement": "viability", "value": "14.3%"}
{"SMILES": "CCN(CC)CCNC(=O)c1cc(S(C)(=O)=O)cnc1OC", "test system": "human liver microsomes", "setting": "2 µM, pH 7.4, approximate", "measurement": "t1/2", "value": "~121 h"}
{"SMILES": "C[C@H](NC(=O)[C@H](C)NC(=O)[C@H](CCCNC(=N)N)NC(=O)[C@@H]1CCCN1C(=O)[C@H](CCCNC(=N)N)NC(=O)CNC(=O)c1ccc2c(c1)C(=O)OC21c2ccc(O)cc2Oc2cc(O)ccc21)C(=O)N[C@H](C(=O)N[C@@H](Cc1ccccc1)C(=O)N[C@@H](C)C(=O)N[C@@H](CCC(=O)O)C(=O)NCC(N)=O)[C@@H](C)O", "assay": "CE-MS", "test system": "HeLa cell lysate", "setting": "37 °C", "measurement": "t1/2", "value": "0.0833 h"}
{"SMILES": "O=C(Nc1cnccc1Cl)N1CCN(Cc2ccc3c(c2)OC(F)(F)O3)CC1", "test system": "healthy young men, plasma", "setting": "oral, 25 mg once daily, day 10", "measurement": "t1/2", "value": "11 h"}
{"SMILES": "CCC1=C(CC)/C(=C/N[C@H]2CC[C@H](C)CC2)N=C1c1ccc[nH]1", "test system": "pooled human liver microsomes", "setting": "1 µM, pH 7.4", "measurement": "t1/2", "value": "0.388 h"}
{"note": "Excerpt of the above:"}
{"SMILES": "CCC1=C(CC)/C(=C/N[C@H]2CC[C@H](C)CC2)N=C1c1ccc[nH]1", "test system": "pooled human liver microsomes", "setting": "1 µM, pH 7.4", "measurement": "t1/2", "value": "0.388 h"}
